Assay results pooled from the literature.
Each numbered part is a random draw from the data of one study; scales do not carry over between parts. Substitutions count along the parent as printed.

Block 1 — technique: DHFR PCA, deep sequencing; matrix: yeast; with: (+)-ABA 0.11 µM; relative to: wild-type fitted maximum; reading: higher = stronger binding
Target: ABI1, truncated, D143A, DHFR fusion (Arabidopsis thaliana)
Notes: methotrexate growth selection, single substitutions
Starting sequence: PYL1, truncated, DHFR fusion (Arabidopsis thaliana); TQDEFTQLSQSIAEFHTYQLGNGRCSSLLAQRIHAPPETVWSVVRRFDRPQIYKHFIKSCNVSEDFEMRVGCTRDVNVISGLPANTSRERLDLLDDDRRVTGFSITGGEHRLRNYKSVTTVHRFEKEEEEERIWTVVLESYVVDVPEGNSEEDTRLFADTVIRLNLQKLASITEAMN
Substitution	relative binding score [%]
D159M	-17.8
E14G	0.799
D96I	-6.08
T86G	5.63
E89D	-1.8
R113V	33.4
C72W	0.989
E147N	13.7
E152P	-15.4
I172P	-1.9
Q7Y	34.9
I172C	-4.03
N114A	4.09
H34C	40

Block 2 — technique: protein-binding microarray; molecule type: double-stranded DNA, one strand shown; matrix: in vitro; tested at: not given; reading: higher = stronger binding
Target: Protein C-ets-1 (ETS1, Homo sapiens, UniProt P14921, residues 1-441, Y397A, full length assumed)
Notes: k-mer, scored over probes, only values ≥0.25
Residues (chain): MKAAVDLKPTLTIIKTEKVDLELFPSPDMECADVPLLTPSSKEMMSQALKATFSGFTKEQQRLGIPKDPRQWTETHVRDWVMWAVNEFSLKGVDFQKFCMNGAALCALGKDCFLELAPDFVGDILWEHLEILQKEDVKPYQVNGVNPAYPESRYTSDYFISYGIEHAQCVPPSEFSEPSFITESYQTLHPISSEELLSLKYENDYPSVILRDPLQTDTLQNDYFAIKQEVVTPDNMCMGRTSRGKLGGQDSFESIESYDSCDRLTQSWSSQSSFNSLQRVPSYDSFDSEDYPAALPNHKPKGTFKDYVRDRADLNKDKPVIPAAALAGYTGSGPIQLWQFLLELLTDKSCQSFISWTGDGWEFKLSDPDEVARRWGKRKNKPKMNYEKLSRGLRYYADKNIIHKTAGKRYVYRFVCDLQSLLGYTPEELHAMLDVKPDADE
Oligonucleotide	E-score
CTTTTGTC	0.354
AATGACAC	0.299
AACATGAC	0.262
GCCGGATA	0.315
GAACTTCC	0.316
CAAATTGC	0.294
CAACGTAC	0.254
CACGGCAA	0.265
ACAAACGA	0.301
CTGGCAAA	0.312
ATACAAAC	0.316
ATCCGACA	0.337
TACCGGAA	0.361

Block 3 — technique: protein-binding microarray; molecule type: double-stranded DNA, one strand shown; matrix: in vitro; tested at: 0.8 µM; notes: whole 60-bp probe, no competitor; reading: higher = stronger binding; all sequences stand within: … GTCTTGATTCGCTTGACGCTGCTG
Target: Centromere-binding protein 1, full length, N-terminal tag (CBF1, Saccharomyces cerevisiae, UniProt P17106, residues 1-351)
Sequence of UniProt P17106 (whole entry, looked up): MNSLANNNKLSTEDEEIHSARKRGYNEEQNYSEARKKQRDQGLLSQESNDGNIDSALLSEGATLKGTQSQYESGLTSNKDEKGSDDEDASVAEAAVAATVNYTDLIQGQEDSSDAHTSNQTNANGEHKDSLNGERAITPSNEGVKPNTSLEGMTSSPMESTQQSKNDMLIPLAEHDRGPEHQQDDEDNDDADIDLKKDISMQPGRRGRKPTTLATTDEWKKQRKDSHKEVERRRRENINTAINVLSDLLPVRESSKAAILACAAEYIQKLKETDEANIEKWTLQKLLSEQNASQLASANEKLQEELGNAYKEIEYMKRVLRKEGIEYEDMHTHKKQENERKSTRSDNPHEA
Oligonucleotide	fluorescence intensity
GAAGGCTTTTATTAGCATGTGAAATGCTTTGTATAG	775 a.u.
GAATTTGTGAACATGCACGTTCACTACGCTGCTTAG	609 a.u.
CTATTCACCAGGTCACATGGCATCGATGGAAATTTC	6890 a.u.
GAATTGTAACAATATCATGAGACCTTTTATAGATAG	682 a.u.
CTACCCCGTTTCCTTTTAATCACGTGCGCGGGTTTC	17600 a.u.
CTAAGAACGCTGAAACACGTTGTTCACATCACCTTC	606 a.u.
CTAGCCACATTTCATCAGCTGTAGATCTGGAAATTC	525 a.u.
CTATCCATTTATCATATAAAAAATTTTGGCTTATTC	517 a.u.
TGTACGAAGCTATAACACGTCATTATAGTAGTTAGG	543 a.u.
GAACTTGGTACTTTAGTCGTGATCCTTTGACATTAG	603 a.u.
CTAAATACTTCGTCCGTCGTGATATCATTAACTTTC	602 a.u.
GAAGGAAGAAAAAGTGGTCAGGTGCAAGTATACTAG	2510 a.u.
GAACTCCGCTTGAATCACGTCTTCTAAGCGGGATAG	636 a.u.
CTACCGCGTAGAAATCACGTCGCGCAATGTGCGTTC	574 a.u.
GAACCAGGGGCTAATGGTGTGAAGGCACTTTCTTAG	484 a.u.
CTACTTTGAACTTCTTACGTGAGTGGCAACGTATTC	541 a.u.
TGTACGAAGCTATACGTGACCCTTATAGTAGTTAGG	735 a.u.
CTAAATTTTCTATAGAACGTGTATGGCTCACGATTC	534 a.u.

Mixed results
P1: CDAN1 docking peptide (human); RGARSQLFPPTEA; partner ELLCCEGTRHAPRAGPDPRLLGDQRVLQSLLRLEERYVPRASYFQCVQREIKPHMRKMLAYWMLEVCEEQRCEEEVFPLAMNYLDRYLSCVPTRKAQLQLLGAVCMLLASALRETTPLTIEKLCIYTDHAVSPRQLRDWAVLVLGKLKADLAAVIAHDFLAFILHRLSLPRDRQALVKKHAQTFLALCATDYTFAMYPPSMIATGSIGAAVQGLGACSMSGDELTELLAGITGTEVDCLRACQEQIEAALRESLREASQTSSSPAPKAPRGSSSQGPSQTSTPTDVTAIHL
Substance	tested on	assay	test system	conditions	how to read	measurement	result
GSPLKKLFTSTAL	Saccharomyces cerevisiae	binding, competitive growth deep sequencing	peptide, cyclin E1-Cln2 fusion strain	concentration not given, combined peptide libraries	direction not given	growth enrichment score	-0.145
KLLPRKLQFFCDP	Saccharomyces cerevisiae	binding, competitive growth deep sequencing	peptide, cyclin D3-Cln2 fusion strain	concentration not given, Cln2 score subtracted	direction not given	growth enrichment score	-0.114
P1 L7A	CCND3, cyclin fold, Cln2 fusion (human)	yeast growth competition, sequencing	yeast	weak parent motif	relative to: not given, higher = stronger binding	normalised enrichment score	0.196
VLLKRLQDVVSERANH	Saccharomyces cerevisiae	binding, competitive growth deep sequencing	peptide, cyclin D3-Cln2 fusion strain	concentration not given, tiling library, Cln2 subtracted	direction not given	growth enrichment score	4.53

A few entries again (block 3):
Oligonucleotide	fluorescence intensity
GAACTTGGTACTTTAGTCGTGATCCTTTGACATTAG	603 a.u.
CTACCGCGTAGAAATCACGTCGCGCAATGTGCGTTC	574 a.u.
CTAGCCACATTTCATCAGCTGTAGATCTGGAAATTC	525 a.u.
GAACCAGGGGCTAATGGTGTGAAGGCACTTTCTTAG	484 a.u.
CTAAATACTTCGTCCGTCGTGATATCATTAACTTTC	602 a.u.
GAACTCCGCTTGAATCACGTCTTCTAAGCGGGATAG	636 a.u.
TGTACGAAGCTATAACACGTCATTATAGTAGTTAGG	543 a.u.
CTACTTTGAACTTCTTACGTGAGTGGCAACGTATTC	541 a.u.
